Experimental data gathered from unrelated publications.
Numbered parts are unrelated; each lists some results of a single study.

Study 1
Target: Histone acetyltransferase KAT6A, winged helix 1, GST fusion (KAT6A, Homo sapiens, UniProt Q92794, residues 1-85)
Technique: protein binding microarray
Form: double-stranded DNA, one strand shown
Matrix: in vitro
Concentration: not given
Setting: 8-mer, flanks averaged, mean of 2 arrays, mostly near background
Baseline: not given
Direction: higher = stronger binding
Endpoint: E-score
Construct (chain): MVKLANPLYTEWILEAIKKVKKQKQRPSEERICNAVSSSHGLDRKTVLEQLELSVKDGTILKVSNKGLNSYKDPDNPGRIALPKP
TAGTGCAA: -0.0181
CCTAGAAG: 0.0339
ACGGGGGG: 0.238
ATCCTTCA: -0.157
AACCATCG: -0.0248
CAGGTACA: -0.126
ACGGCTGA: 0.219
AGTTGGGG: -0.275
CAGGGATC: -0.17
AAGGTTCG: 0.00366
CAGTACTA: -0.109
AGTCGGGA: 0.148
AAATATCA: -0.189
CGGGTCTC: 0.277
GAATGACA: -0.209
TAAGAATA: -0.0217
CCCAACTC: -0.272
ATTCCGTA: 0.121
CGCGTGTC: 0.295
GTGACCTA: -0.177

Study 2
Sequence: GFGFLLFICKLTF
Form: peptide
Direction: direction not given
Endpoint: enrichment score
human cyclin A2; competitive growth deep sequencing; Saccharomyces cerevisiae, cyclin A2-Cln2 fusion strain; peptide tiling library: 0.324
Saccharomyces cerevisiae; binding, yeast competitive growth sequencing; cyclin B3-Cln2 fusion strain; peptide tiling library: 0.0815
peptide binding; yeast competitive growth; added: B1-Cln2 chimera: -0.0925
Saccharomyces cerevisiae; mating pheromone growth arrest, pooled competitive growth deep sequencing; no Cln2 overexpression; peptide tiling library: -0.473
Cln2 (Saccharomyces cerevisiae); peptide binding, competitive growth sequencing; Saccharomyces cerevisiae, unfused Cln2 strain; mutational scanning library 2: -0.563
Saccharomyces cerevisiae; binding, yeast competitive growth sequencing; cyclin A1-Cln2 strain, peptide tiling library: -1.32

Study 3
Target: RING finger protein unkempt homolog, zinc fingers 1-6, GST-SBP tag (UNK, Homo sapiens, UniProt Q9C0B0, residues 30-357)
Sequence of UniProt Q9C0B0 (30-357, looked up): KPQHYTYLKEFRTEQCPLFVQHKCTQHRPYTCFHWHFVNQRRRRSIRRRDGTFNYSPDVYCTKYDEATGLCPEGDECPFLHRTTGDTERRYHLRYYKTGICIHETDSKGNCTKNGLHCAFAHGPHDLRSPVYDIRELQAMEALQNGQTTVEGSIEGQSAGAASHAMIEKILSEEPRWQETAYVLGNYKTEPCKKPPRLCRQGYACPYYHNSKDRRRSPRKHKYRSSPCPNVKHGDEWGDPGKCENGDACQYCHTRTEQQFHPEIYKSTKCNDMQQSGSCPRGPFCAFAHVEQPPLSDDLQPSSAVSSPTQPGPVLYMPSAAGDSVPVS
Technique: RNA Bind-n-Seq
Form: RNA
Matrix: in vitro
Concentration: not given
Setting: RNA with constant flanks, ends assumed
Baseline: input RNA pool
Direction: higher = stronger binding
Endpoint: bound/input enrichment
Constant ends, left off below: GGGAGUUCUACAGUCCGACGAUC … CAACAGAGGAUUGAGCAUCA
UUGGCAGAAGGUGUCAUUUUAAGACGAGUAGGCGAAGCAAGGACUCAACACGGAGGCCGUCACGUUUCCCGGAAAUCCGAACACUUGAGUGUCAGACCACAGACUGCGUUGGAAGAAAAC: 0.148 ratio
UAUCAGUCUCUCCUUAUCAGAGGAGAGACCUUUUAUUUUUAAGAUGACUACAGACCUAUUUUCCGAUAAGUUUUCAGUACAAUUUUGAACUACAACUUUUUUAACAAAACAUCUUCCAGU: 0.144 ratio
AAAGGGAAAUCAGUCCGUGUUCAUGUACAGUUUUUUGAUGACAGCCCAACAAGGGGCUGGGUCCGCAAAAGGCUUUUAAAGCCAUAUACAGGUUCAAAAUCAAAGGAAGCCCAGAAGGGA: 0.214 ratio
AAAGCACACAGACUUCUCAGCCCAUGUACUGUGCCUGCCAAGCCAUUGGAACCUGAAACCGCCGCCCGCGAGAACUUGCGCAGCCACAUACCAAAGCCGAAGGCUACUCUGUGCCAUUCC: 0.147 ratio
UCUGGAAGUGGAAUCCUUACUGCAUGUUUUGCACGUAUGGUUGGAUGUACUGGAAAAGUCACCGGAAUUGAUCACAUUAAAGAGCUAGUAGAUGACUCAGUAAAUAAUGUCAGGAAGGAC: 0.476 ratio
GGCACUGACCUGCCAUGCCUCGCCUGGAGGCUCAGCUGUGGGCAUCCCUCCAUGGGGUUCACCGAAAUAAGUGCAAUUUCUACACCCCCGAAACAAUUCAAAGGGAAGCAGCAUUUCUUG: 0.129 ratio
UCCGAUAUGGACUACAUUCAGACAGACGCUAUCAUCAAUUAUGGAAAUUCCGGAGGCCCGUCCGUAAACCUGGAUGGCGAGGUGAUUGGGAUUAACACCUUGAAGGUGACGGCGGGCAUC: 0.28 ratio
UUAUGUCUUCAGCUUCGGCAGGACAUAGUUGCAGGACGUCUGCCCUGUUCCUUUGCAACCUCCGCAUUAUUAGGUUCUUACACCAUCCAGUCUGAACUGGGAGACUACGACCCAGAACUC: 0.343 ratio

Study 4
Target: Sal-like protein 4, full length isoform B (SALL4, Homo sapiens, UniProt Q9UJQ4-2, residues 1-616)
Technique: universal PBM
Form: double-stranded DNA, one strand shown
Matrix: in vitro
Concentration: not given
Setting: 8-mer, flanks averaged, mean of replicates
Direction: higher = stronger binding
Endpoint: E-score
ATACCGTG: -0.11
TATTGGGA: 0.21
AGGTCGTC: -0.124
AACATTGA: 0.211
GCCAAAAC: -0.0302
ACTCCTTG: -0.136
TACTGACA: 0.0772
GAACTTGC: -0.159
ATCTCGTA: 0.24
CTTACGAA: 0.175
ATACCCGC: -0.0798
ATCTTTCC: 0.0792
AGTTTCAA: 0.147
TAGAACGA: 0.14
ATCTGAAC: 0.0452
CCCCGTTC: -0.197
CTTGACGC: -0.198
GTCGCCAC: -0.308
AGGCATTG: -0.0449
CAGCGTGG: -0.188
AGACTTGA: -0.0104
CCGTACGA: 0.0504
CCGCCCCC: -0.302
CAAGCAGC: -0.106
GCACGATA: 0.139

Repeated from above (study 1):
ATTCCGTA: 0.121
ACGGCTGA: 0.219
AACCATCG: -0.0248
CAGTACTA: -0.109
TAGTGCAA: -0.0181
